Assay results of several laboratories.
Compare with care: the assays were run in different laboratories.

CN(C)c1cc(CNCc2ccco2)c(O)c2c1C[C@H]1C[C@H]3[C@H](N(C)C)C(O)=C(C(N)=O)C(=O)[C@@]3(O)C(O)=C1C2=O
MIC (Streptococcus pneumoniae; ATCC 700905, Tet M ribosome protection): 0.5 mg/L

Oc1c(Br)ccc2cccnc12
MIC (Saccharomyces cerevisiae; microbial growth, agar dilution; ATCC2601): 35.7 µM

C[C@@H](c1ccn(Cc2ccc(Cl)c(Cl)c2)n1)[C@](O)(Cn1cnnn1)c1ccc(F)cc1F
MIC (Candida tropicalis; growth, broth microdilution; 2718; 24 h, 30 °C, ≥50% inhibition): 0.016 mg/L

N#Cc1ccc2cccc(O)c2n1
MIC (Saccharomyces cerevisiae; microbial growth, agar dilution; ATCC2601): > 1500 µM

C[C@@H](c1ccn(Cc2c(F)cc(Cl)cc2F)n1)[C@](O)(Cn1cnnn1)c1ccc(F)cc1F
MIC (Candida tropicalis; growth, broth microdilution; 2718; 24 h, 30 °C, ≥50% inhibition): < 0.008 mg/L

CC[C@@H](C)[C@@H](NC(=O)[C@@H](C)NC(=O)[C@@H](CCCCN)NC(=O)[C@@H](CC(C)C)NC(=O)[C@@H](C)NC(=O)[C@H](NC(=O)[C@@H](CCCCN)NC(=O)[C@@H](CC(C)C)NC(=O)[C@H](NC(=O)[C@@H](CCCCN)NC(=O)[C@@H](CCCCN)NC(=O)[C@@H](CCCCN)NC(=O)[C@@H](C)NC(=O)[C@@H](CCCCN)NC(=O)[C@@H](CO)NC(=O)[C@@H](Cc1ccccc1)NC(=O)[C@H](NC(=O)[C@@H](CCCCN)NC(=O)[C@@H](CC(C)C)NC(=O)[C@@H](Cc1ccccc1)NC(=O)[C@@H](CO)NC(=O)[C@@H](CCCCN)NC(=O)[C@@H](Cc1c[nH]c2ccccc12)NC(=O)[C@@H](CCCCN)NC(C)=O)[C@H](C)O)C(C)C)[C@H](C)O)C(=O)N[C@H](CO)C(=O)N[C@H](CCCCN)C(N)=O
MIC (Acinetobacter baumannii; 649, Mueller-Hinton broth; 24 h, 37 °C): 0.3 µM

C=CCN(CC)Cc1cc(N(C)C)c2c(c1O)C(=O)C1=C(O)[C@]3(O)C(=O)C(C(N)=O)=C(O)[C@@H](N(C)C)[C@@H]3C[C@@H]1C2
MIC (Streptococcus pneumoniae; microbial growth, broth dilution): 0.125 mg/L

C[C@@H](c1ccn(Cc2ccc(F)cc2)n1)[C@](O)(Cn1cnnn1)c1ccc(F)cc1F
MIC (Candida tropicalis; growth, broth microdilution; 2718; 24 h, 30 °C, ≥50% inhibition): < 0.008 mg/L

c1ccc(CN2CCOCCOCCN(CCCCCCCCCCN3CCOCCOCCN(CCCCCCCCCCN4CCOCCOCCN(Cc5ccccc5)CCOCCOCC4)CCOCCOCC3)CCOCCOCC2)cc1
MIC (Streptococcus pneumoniae; microbial growth): 6 µM

CC(C)C[C@H](NC(=O)[C@H](CC(N)=O)NC(=O)[C@H](CCCNC(=N)N)NC(=O)[C@@H](CC(C)C)NC(=O)[C@H](Cc1ccccc1)NC(=O)[C@H](CC(=O)O)NC(=O)[C@H](CCCCN)NC(=O)[C@@H](CC(C)C)NC(=O)[C@H](CCCNC(=N)N)NC(=O)[C@H](CCC(N)=O)NC(=O)[C@@H](NC(=O)[C@@H](CC(C)C)NC(=O)[C@H](CCCNC(=N)N)NC(=O)[C@H](CCCCN)NC(=O)[C@H](Cc1ccc(C(F)(F)F)cc1)NC(=O)CN)C(C)C)C(=O)N[C@H](C(N)=O)C(C)C
MIC (ESKAPE pathogens; most strains): 25 to 50 µM

CC1CCN(Cc2cc(N(C)C)c3c(c2O)C(=O)C2=C(O)[C@]4(O)C(=O)C(C(N)=O)=C(O)[C@@H](N(C)C)[C@@H]4C[C@@H]2C3)CC1
MIC (Streptococcus pneumoniae; ATCC 700905, Tet M ribosome protection): < 0.06 mg/L

CC(=O)N[C@H](CCCCN)C(=O)N[C@H](CC(C)C)C(=O)N[C@H](CCCCN)C(=O)N[C@H](CO)C(=O)N[C@H](CC(C)C)C(=O)N[C@H](CC(C)C)C(=O)N[C@H](CCCCN)C(=O)N[C@@H](C(=O)N[C@H](CC(C)C)C(=O)N[C@H](CO)C(=O)N[C@H](CCCCN)C(=O)N[C@H](C)C(=O)N[C@H](CCCCN)C(=O)N[C@H](CCCCN)C(=O)N[C@H](CCCCN)C(=O)N[C@H](CC(C)C)C(=O)N[C@H](CC(C)C)C(=O)N[C@H](CCCCN)C(=O)N[C@@H](C(=O)N[C@H](C)C(=O)N[C@H](CC(C)C)C(=O)N[C@H](CCCCN)C(=O)N[C@H](C)C(=O)N[C@H](CC(C)C)C(=O)N[C@H](CO)C(=O)N[C@H](CCCCN)C(N)=O)[C@H](C)O)[C@H](C)O
MIC (Acinetobacter baumannii; broth microdilution; ATCC 17978; 24 h, 37 °C): 0.7 µM

Cc1ccc(Cn2ccc([C@H](C)[C@](O)(Cn3cnnn3)c3ccc(F)cc3F)n2)cc1
MIC (Candida tropicalis; growth, broth microdilution; 2718; 24 h, 30 °C, ≥50% inhibition): < 0.008 mg/L

COC1CCN(Cc2cc(N(C)C)c3c(c2O)C(=O)C2=C(O)[C@]4(O)C(=O)C(C(N)=O)=C(O)[C@@H](N(C)C)[C@@H]4C[C@@H]2C3)CC1
MIC (Streptococcus pneumoniae; ATCC 700905, Tet M ribosome protection): < 0.06 mg/L

CC[C@@H](C)[C@@H](NC(=O)[C@@H](C)NC(=O)[C@@H](CCCCN)NC(=O)[C@@H](CC(C)C)NC(=O)[C@@H](CC(C)C)NC(=O)[C@H](NC(=O)[C@@H](CCCCN)NC(=O)[C@@H](CC(C)C)NC(=O)[C@@H](C)NC(=O)[C@@H](CCCCN)NC(=O)[C@@H](CCCCN)NC(=O)[C@@H](CCCCN)NC(=O)[C@@H](C)NC(=O)[C@@H](CCCCN)NC(=O)[C@@H](CO)NC(=O)[C@@H](Cc1ccccc1)NC(=O)[C@H](NC(=O)[C@@H](CCCCN)NC(=O)[C@@H](CC(C)C)NC(=O)[C@@H](Cc1ccccc1)NC(=O)[C@@H](CO)NC(=O)[C@@H](CCCCN)NC(=O)[C@@H](Cc1c[nH]c2ccccc12)NC(=O)[C@@H](CCCCN)NC(C)=O)[C@H](C)O)[C@H](C)O)C(=O)N[C@H](CO)C(=O)N[C@H](CCCCN)C(N)=O
MIC (Acinetobacter baumannii; 689, Mueller-Hinton broth; 24 h, 37 °C): 1.3 µM

CN(C)c1cc(CN2CCCCC2)c(O)c2c1C[C@H]1C[C@H]3[C@H](N(C)C)C(O)=C(C(N)=O)C(=O)[C@@]3(O)C(O)=C1C2=O
MIC (Streptococcus pneumoniae; ATCC 700905, Tet M ribosome protection): < 0.06 mg/L

C[C@@H](c1ccn(Cc2ccc(Cl)cc2Cl)n1)[C@](O)(Cn1cnnn1)c1ccc(F)cc1F
MIC (Candida tropicalis; growth, broth microdilution; 2718; 24 h, 30 °C, ≥50% inhibition): < 0.008 mg/L

CC[C@@H](C)[C@@H](NC(=O)[C@@H](C)NC(=O)[C@@H](CCCCN)NC(=O)[C@@H](CC(C)C)NC(=O)[C@@H](C)NC(=O)[C@H](NC(=O)[C@@H](Cc1c[nH]cn1)NC(=O)[C@@H](CC(C)C)NC(=O)[C@H](NC(=O)[C@H](NC(=O)[C@@H](CCCCN)NC(=O)[C@H](NC(=O)[C@@H](C)NC(=O)[C@@H](CO)NC(=O)[C@@H](CCCCN)NC(=O)[C@@H](Cc1ccccc1)NC(=O)[C@H](NC(=O)[C@@H](CCCCN)NC(=O)[C@@H](CC(C)C)NC(=O)[C@@H](Cc1ccccc1)NC(=O)[C@@H](CO)NC(=O)[C@@H](CCCCN)NC(=O)[C@@H](Cc1c[nH]c2ccccc12)NC(=O)[C@@H](CCCCN)NC(C)=O)[C@H](C)O)C(C)C)[C@H](C)O)C(C)C)[C@H](C)O)C(=O)N[C@H](CO)C(=O)N[C@H](CO)C(N)=O
MIC (Acinetobacter baumannii; 884, Mueller-Hinton broth; 24 h, 37 °C): 0.7 µM

CN(C)c1cc(CNC2CCCCC2)c(O)c2c1C[C@H]1C[C@H]3[C@H](N(C)C)C(O)=C(C(N)=O)C(=O)[C@@]3(O)C(O)=C1C2=O
MIC (Streptococcus pneumoniae; ATCC 700905, Tet M ribosome protection): 0.5 mg/L

CC(C)c1ccc(Cn2ccc([C@H](C)[C@](O)(Cn3cnnn3)c3ccc(F)cc3F)n2)cc1
MIC (Candida tropicalis; growth, broth microdilution; 2718; 24 h, 30 °C, ≥50% inhibition): < 0.008 mg/L

CC[C@@H](C)[C@@H](NC(=O)[C@@H](C)N)C(=O)N[C@H](CCCCN)C(=O)N[C@@H](C(=O)N[C@H](CCCNC(=N)N)C(=O)N[C@H](CCCCN)C(=O)N[C@H](CC(C)C)C(=O)N[C@H](Cc1ccccc1)C(=O)N[C@H](CCCCN)C(=O)N[C@H](CCCCN)C(=O)N[C@H](CC(C)C)C(=O)N[C@H](CC(C)C)C(=O)N[C@H](CCCNC(=N)N)C(N)=O)[C@H](C)CC
MIC (Escherichia coli; ATCC 25922; 1 h, 37 °C, non-dividing cells in PBS): 12.5 to 25 mg/L

Some of these lines once more:
c1ccc(CN2CCOCCOCCN(CCCCCCCCCCN3CCOCCOCCN(CCCCCCCCCCN4CCOCCOCCN(Cc5ccccc5)CCOCCOCC4)CCOCCOCC3)CCOCCOCC2)cc1
MIC (Streptococcus pneumoniae; microbial growth): 6 µM

CC(C)C[C@H](NC(=O)[C@H](CC(N)=O)NC(=O)[C@H](CCCNC(=N)N)NC(=O)[C@@H](CC(C)C)NC(=O)[C@H](Cc1ccccc1)NC(=O)[C@H](CC(=O)O)NC(=O)[C@H](CCCCN)NC(=O)[C@@H](CC(C)C)NC(=O)[C@H](CCCNC(=N)N)NC(=O)[C@H](CCC(N)=O)NC(=O)[C@@H](NC(=O)[C@@H](CC(C)C)NC(=O)[C@H](CCCNC(=N)N)NC(=O)[C@H](CCCCN)NC(=O)[C@H](Cc1ccc(C(F)(F)F)cc1)NC(=O)CN)C(C)C)C(=O)N[C@H](C(N)=O)C(C)C
MIC (ESKAPE pathogens; most strains): 25 to 50 µM
